# Published values from different studies.
# A part holds a random share of what one study measured.
# Sequence of UniProt P17948 (whole entry, looked up): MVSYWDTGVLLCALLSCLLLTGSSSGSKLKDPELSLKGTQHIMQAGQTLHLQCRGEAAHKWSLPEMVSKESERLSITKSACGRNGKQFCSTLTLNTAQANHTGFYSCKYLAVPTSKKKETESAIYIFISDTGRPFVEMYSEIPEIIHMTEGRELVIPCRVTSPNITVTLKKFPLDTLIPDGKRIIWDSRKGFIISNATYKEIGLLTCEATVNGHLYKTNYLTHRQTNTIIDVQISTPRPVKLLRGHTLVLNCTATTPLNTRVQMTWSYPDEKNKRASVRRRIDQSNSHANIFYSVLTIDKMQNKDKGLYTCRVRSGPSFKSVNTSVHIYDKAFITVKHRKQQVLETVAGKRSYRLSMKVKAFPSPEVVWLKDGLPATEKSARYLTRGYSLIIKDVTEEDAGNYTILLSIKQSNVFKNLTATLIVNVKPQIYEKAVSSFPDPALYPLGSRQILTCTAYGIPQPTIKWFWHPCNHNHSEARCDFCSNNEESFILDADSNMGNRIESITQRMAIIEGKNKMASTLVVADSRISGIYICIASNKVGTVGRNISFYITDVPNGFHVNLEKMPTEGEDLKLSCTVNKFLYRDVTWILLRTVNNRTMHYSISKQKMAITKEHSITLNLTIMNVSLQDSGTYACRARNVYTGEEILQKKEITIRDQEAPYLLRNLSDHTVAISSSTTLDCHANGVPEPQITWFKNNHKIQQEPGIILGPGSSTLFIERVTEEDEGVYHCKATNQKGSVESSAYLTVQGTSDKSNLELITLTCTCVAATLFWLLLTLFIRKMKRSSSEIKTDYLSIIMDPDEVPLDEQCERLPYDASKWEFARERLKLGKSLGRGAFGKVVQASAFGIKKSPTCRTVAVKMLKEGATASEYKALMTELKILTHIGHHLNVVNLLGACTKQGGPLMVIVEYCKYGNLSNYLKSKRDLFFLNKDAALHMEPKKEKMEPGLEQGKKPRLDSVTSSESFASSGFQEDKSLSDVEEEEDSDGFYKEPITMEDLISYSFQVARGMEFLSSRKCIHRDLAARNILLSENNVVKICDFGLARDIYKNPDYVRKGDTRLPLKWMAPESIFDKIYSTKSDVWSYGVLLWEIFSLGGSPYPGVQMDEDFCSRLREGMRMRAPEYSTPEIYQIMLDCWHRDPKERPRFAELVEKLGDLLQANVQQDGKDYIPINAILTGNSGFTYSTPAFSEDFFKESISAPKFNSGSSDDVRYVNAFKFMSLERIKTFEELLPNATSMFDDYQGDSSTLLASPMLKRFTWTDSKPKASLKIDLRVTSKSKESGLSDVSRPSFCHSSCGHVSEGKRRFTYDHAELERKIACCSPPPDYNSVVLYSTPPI
# Sequence of UniProt Q99558 (whole entry, looked up): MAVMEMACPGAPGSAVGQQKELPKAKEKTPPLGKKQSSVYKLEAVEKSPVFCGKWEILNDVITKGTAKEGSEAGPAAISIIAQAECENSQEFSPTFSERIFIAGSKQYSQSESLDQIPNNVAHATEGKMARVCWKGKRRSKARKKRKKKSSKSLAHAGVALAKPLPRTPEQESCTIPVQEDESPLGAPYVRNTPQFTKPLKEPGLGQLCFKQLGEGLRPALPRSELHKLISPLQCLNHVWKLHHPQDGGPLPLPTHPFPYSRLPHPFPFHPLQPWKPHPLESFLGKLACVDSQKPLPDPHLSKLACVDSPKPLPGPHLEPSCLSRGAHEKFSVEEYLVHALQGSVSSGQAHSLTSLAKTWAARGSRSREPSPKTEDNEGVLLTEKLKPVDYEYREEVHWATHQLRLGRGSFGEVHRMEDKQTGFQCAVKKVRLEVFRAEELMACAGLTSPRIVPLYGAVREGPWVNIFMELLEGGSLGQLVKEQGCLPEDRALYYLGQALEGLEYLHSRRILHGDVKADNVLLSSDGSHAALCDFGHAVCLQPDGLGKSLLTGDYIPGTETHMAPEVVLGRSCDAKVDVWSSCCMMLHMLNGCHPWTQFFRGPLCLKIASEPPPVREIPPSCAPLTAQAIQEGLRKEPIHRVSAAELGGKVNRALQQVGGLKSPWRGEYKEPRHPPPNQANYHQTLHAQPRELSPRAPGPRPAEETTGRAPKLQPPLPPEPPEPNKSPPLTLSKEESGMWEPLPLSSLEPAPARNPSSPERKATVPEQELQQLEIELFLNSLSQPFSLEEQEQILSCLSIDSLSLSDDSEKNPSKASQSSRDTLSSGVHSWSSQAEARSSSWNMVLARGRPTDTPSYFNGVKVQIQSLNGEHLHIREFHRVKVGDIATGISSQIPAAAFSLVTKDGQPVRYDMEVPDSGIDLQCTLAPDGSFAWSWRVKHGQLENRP
# Sequence of UniProt Q8N4C8 (whole entry, looked up): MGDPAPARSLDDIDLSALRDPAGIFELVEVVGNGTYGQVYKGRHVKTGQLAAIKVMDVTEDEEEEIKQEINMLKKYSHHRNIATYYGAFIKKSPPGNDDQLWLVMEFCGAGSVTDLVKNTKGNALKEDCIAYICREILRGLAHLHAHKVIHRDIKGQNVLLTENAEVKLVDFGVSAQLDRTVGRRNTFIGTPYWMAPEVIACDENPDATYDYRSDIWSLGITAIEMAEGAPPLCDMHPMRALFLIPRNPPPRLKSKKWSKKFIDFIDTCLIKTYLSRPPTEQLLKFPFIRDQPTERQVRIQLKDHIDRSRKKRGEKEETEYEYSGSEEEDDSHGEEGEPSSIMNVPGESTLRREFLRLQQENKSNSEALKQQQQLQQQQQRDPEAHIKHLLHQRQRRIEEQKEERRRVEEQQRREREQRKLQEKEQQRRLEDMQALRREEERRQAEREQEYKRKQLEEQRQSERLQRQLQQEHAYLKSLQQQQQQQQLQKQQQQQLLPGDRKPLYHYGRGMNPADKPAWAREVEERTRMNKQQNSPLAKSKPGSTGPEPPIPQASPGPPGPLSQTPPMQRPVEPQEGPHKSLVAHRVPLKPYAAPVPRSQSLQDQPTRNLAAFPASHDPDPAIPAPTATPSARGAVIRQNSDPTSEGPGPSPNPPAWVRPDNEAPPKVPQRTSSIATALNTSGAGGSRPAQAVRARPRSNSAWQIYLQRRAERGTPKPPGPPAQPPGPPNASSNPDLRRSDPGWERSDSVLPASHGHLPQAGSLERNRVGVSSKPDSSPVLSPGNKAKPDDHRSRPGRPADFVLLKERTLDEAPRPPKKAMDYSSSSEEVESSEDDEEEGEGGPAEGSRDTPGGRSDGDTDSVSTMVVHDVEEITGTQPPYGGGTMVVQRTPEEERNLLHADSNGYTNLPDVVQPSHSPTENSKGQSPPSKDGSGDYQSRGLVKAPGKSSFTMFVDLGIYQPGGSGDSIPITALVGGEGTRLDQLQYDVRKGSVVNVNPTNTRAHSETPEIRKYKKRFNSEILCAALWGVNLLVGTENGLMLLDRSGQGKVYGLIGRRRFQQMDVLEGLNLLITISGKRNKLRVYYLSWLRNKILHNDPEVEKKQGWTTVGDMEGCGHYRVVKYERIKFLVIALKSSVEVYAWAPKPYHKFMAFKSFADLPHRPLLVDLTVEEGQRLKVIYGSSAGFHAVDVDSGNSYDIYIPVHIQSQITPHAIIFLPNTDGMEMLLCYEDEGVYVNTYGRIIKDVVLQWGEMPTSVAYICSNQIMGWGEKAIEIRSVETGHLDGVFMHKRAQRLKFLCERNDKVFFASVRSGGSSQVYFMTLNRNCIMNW
# Sequence of UniProt P36897 (whole entry, looked up): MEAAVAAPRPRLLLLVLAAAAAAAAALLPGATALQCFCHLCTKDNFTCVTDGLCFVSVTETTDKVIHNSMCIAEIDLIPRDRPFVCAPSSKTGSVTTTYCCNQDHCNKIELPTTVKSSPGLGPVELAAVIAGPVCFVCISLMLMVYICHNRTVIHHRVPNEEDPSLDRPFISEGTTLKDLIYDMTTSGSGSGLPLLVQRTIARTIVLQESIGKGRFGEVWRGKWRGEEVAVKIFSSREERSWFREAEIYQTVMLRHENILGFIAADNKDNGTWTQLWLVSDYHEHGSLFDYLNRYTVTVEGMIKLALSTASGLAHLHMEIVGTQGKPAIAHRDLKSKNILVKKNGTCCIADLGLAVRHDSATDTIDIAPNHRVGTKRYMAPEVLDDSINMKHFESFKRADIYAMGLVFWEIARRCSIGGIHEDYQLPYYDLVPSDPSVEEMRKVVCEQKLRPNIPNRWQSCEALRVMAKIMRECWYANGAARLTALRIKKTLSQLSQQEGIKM

# Block 1
# Target: Receptor-interacting serine/threonine-protein kinase 2 (RIPK2, Homo sapiens, UniProt O43353)
# Sequence of UniProt O43353 (whole entry, looked up): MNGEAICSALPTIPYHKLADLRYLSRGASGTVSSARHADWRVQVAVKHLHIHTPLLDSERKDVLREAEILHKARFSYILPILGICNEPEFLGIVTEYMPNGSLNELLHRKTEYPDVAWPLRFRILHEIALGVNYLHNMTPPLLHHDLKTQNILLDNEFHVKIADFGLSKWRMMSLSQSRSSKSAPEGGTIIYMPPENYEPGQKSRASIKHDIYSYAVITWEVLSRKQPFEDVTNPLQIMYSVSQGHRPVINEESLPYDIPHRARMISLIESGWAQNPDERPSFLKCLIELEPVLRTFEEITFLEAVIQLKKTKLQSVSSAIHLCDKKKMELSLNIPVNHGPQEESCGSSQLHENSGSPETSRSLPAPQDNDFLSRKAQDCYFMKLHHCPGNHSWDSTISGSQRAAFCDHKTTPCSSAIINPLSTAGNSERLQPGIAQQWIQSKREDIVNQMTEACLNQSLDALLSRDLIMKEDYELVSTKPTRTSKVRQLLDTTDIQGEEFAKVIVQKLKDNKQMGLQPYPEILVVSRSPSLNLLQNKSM
# Observed: enzyme activity
# Action: inhibitor
# Concentration: 0.5 µM
# Baseline: control
SMILES,remaining activity
Cc1cccc(-c2[nH]c(C(C)(C)C)nc2-c2ccc3c(c2)OCO3)n1,79%
O=C1NC(=O)C(c2cn(CCCn3ccnc3)c3ccccc23)=C1Nc1ccccc1,84.3%
COc1ccc(CNC(=O)Nc2ncc([N+](=O)[O-])s2)cc1,82.8%
Cn1sc(=O)n(Cc2ccccc2)c1=O,85.4%
O=C(CCCc1ccc(-c2ccccc2F)cc1)Nc1ccc(O)cc1,84.5%
C#Cc1cccc(Nc2ncnc3cc(OCCOC)c(OCCOC)cc23)c1,57.9%
O=c1c2ccccc2[nH]c(=S)n1CCN1CCC(=C(c2ccc(F)cc2)c2ccc(F)cc2)CC1,93.1%
Nc1ncnc2n[nH]c(Nc3ccc(F)cc3)c12,68.7%
Cc1nc(-c2ccccc2)c(-c2ccncc2)o1,87.4%
O=C1NC(=O)C(c2cn(CCCO)c3ncccc23)=C1c1cnccn1,90.9%
Cc1ccc(NC(=O)c2ccc(CN3CCN(C)CC3)cc2)cc1Nc1nc(-c2cccnc2)cs1,108%
COc1ccc(C(=O)Nc2sc3c(c2C(N)=O)CCCC3)cc1OC,76.5%
OCC(O)CCON=C1C(c2c(O)[nH]c3ccccc23)=Nc2ccccc21 (stereo not drawn),62.8%

# Block 2
# Partner: ARF2 727-859 (Arabidopsis thaliana, UniProt Q94JM3)
# Method: two-hybrid
# Baseline: out of 4 tests
# Direction: higher = firmer interaction
# B1: IAA33 (Arabidopsis thaliana, UniProt Q9FKM7); chain MNSFEPQSQDSLQRRFHQDNSTTQQPRDTTTPFIPKPASKNHNNSNSSSGAAGRSFQGFGLNVEDDLVSSVVPPVTVVLEGRSICQRISLDKHGSYQSLASALRQMFVDGADSTDDLDLSNAIPGHLIAYEDMENDLLLAGDLTWKDFVRVAKRIRILPVKGNTRQVKRNE
# B2: ARF1 538-665 (Arabidopsis thaliana, UniProt Q8L7G0); chain SRQIRSCTKVHMQGSAVGRAIDLTRSECYEDLFKKLEEMFDIKGELLESTKKWQVVYTDDEDDMMMVGDDPWNEFCGMVRKIFIYTPEEVKKLSPKNKLAVNARMQLKADAEENGNTEGRSSSMAGSR
# B3: IAA34 (Arabidopsis thaliana, UniProt Q9C5X0); chain MYCSDPPHPLHLVASDKQQKDHKLILSWKKPTMDSDPLGVFPNSPKYHPYYSQTTEFGGVIDLGLSLRTIQHEIYHSSGQRYCSNEGYRRKWGYVKVTMDGLVVGRKVCVLDHGSYSTLAHQLEDMFGMQSVSGLRLFQMESEFCLVYRDEEGLWRNAGDVPWNEFIESVERLRITRRNDAVLPF
# Target sequence (chain): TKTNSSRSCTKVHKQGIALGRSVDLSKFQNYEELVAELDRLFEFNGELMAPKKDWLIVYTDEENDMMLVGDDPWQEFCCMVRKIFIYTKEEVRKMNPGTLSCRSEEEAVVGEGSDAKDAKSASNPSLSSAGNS
Sequence,positive tests
B1 (IAA33),1
B2 (ARF1 538-665),0
B3 (IAA34),3

# Block 3
# Target: RING finger protein unkempt homolog, zinc fingers 1-6, GST-SBP tag (UNK, Homo sapiens, UniProt Q9C0B0, residues 30-357)
# Sequence of UniProt Q9C0B0 (30-357, looked up): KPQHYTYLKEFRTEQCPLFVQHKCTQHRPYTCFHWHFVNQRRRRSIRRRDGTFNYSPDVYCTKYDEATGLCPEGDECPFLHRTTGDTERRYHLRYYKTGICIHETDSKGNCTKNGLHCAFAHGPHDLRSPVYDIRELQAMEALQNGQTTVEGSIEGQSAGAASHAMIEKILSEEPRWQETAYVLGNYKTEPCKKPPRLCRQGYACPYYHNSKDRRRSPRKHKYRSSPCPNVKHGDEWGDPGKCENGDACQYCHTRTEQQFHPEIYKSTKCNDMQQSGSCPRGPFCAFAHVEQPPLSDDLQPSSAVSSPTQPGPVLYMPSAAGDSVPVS
# Method: RNA Bind-n-Seq
# Molecule type: RNA
# Sample: in vitro
# Concentration: not given
# Notes: RNA with constant flanks, ends assumed
# Baseline: input RNA pool
# Direction: higher = stronger binding
# Constant ends, left off below: GGGAGUUCUACAGUCCGACGAUC … CAACAGAGGAUUGAGCAUCA
Oligonucleotide,bound/input enrichment [ratio]
UCCCAUGACCAAAGGACUCUGAUCACUGGCAUGGCUUCCGGCAGCAUUGUAGCUUUUAAUACCGAUUUUAAUCGGUGGCAUUAUGAGCAUCAGAACAGGUACUGAAGAGAAGCAGCAGAA,0.128
GGGCCUUGGAAGCUGACGGCGUCCAAGACCCACAUCAUGAAGUCUGCGGAUGUGGAAAAGUCCGCUGACGAGCUGCACAUGCCAUCCCUCCCUGAAAUGAUGUUUGGAGACAACGUUCUA,0.0602
GUUGGCUUGUCAGAUGAACUGGCUAAACUGGAUGCAUUUGUAGAAGGAGUGGUUAAGAAAGCCGCUCAAUACAUGGCUGAUGUAUUGGAAGAUAGCAAAGACAAAGUUCAAGAGAAUCUG,0.269
AUGAAGCCAUUAGACUAAUUGCUUGCCAUCAUGAGCAGAAGCAAACGUGACAACAAUUUUUACCGUGCCGAGAUUGGAGAUUCUACAUUCACAGUCCUAAAACGAUACCAGAAUUUAAAG,0.248
UGUGGCGCCAGAGGCCUAGGUGCUGACCCCGGCUUAGAGAGAAGAAAGAAUAUCUUGUUCUUUGUCCGAAAUCUCCACAGCAAGAGUAGUACUUGGUGGGAUGAACAUCUUUCUGAAGAA,0.112
CCCUCCGCUGGGAACGAUGGCUUCUGCCUAGUACCUAUCCUUGUGUUUCUGAUGCAGUGGCCGCAUUGGUUCAAGUUCUCUCCUGCUGUGGUCAGAGUUGCUUCGAUGUUGGCCAAGUGC,0.446
GAUUAUUUAUUCAAGUUACUUCUGAUUGGCGACUCAGGGGUUGGAAAGUCUUGCCUUCUUCUCCGGUUUGCAUGGGACACAGCAGGCCAGGAAAGAUUUCGAACAAUCACCUCCAGUUAU,0.406
GAUAAGUUUGAAAAACUUGUGCAGACUGUGAGAGAUUAUCAUGCAACUUGGAAAACUGUCCGUAAUAAAUUAAAAAAUCAUCCUGAUUAUGAAGAAUACAUCAACUUAGAGGGAACAAGA,1.1

# Block 4
# Compound: O=C(NCCCC1CCCCC1)c1ccc(CNC(=O)c2cnn(-c3ccccc3)c2C(F)(F)F)cc1
# Observed: cell-free assay
# Method: competition with immobilised ligand
# Concentration: 0.1 µM
target,remaining binding [%]
"Receptor-interacting serine/threonine-protein kinase 2 (RIPK2, Homo sapiens, UniProt O43353)",97
"Wee1-like protein kinase 2 (WEE2, Homo sapiens, UniProt P0C1S8)",100
"Serine/threonine-protein kinase Chk2 (CHEK2, Homo sapiens, UniProt O96017)",100
"Activin receptor type-2B (ACVR2B, Homo sapiens, UniProt Q13705)",96
"Cyclin-dependent kinase 11B (CDK11B, Homo sapiens, UniProt P21127)",100
"Serine/threonine-protein kinase tousled-like 1 (TLK1, Homo sapiens, UniProt Q9UKI8)",100
"Misshapen-like kinase 1 (MINK1, Homo sapiens, UniProt Q8N4C8)",97
"Mast/stem cell growth factor receptor Kit, autoinhibited (KIT, Homo sapiens, UniProt P10721)",100
"Serine/threonine-protein kinase 10 (STK10, Homo sapiens, UniProt O94804)",100
"Mitogen-activated protein kinase 10 (MAPK10, Homo sapiens, UniProt P53779)",100
"Epidermal growth factor receptor (EGFR, Homo sapiens, UniProt P00533, del747-750/T751S)",100
"Dual specificity tyrosine-phosphorylation-regulated kinase 1A (DYRK1A, Homo sapiens, UniProt Q13627)",99
"Vascular endothelial growth factor receptor 1 (FLT1, Homo sapiens, UniProt P17948)",100
"TGF-beta receptor type-1 (TGFBR1, Homo sapiens, UniProt P36897)",89
"LIM domain kinase 2 (LIMK2, Homo sapiens, UniProt P53671)",100
"MAP kinase-interacting serine/threonine-protein kinase 2 (MKNK2, Homo sapiens, UniProt Q9HBH9)",100
"Mitogen-activated protein kinase kinase kinase 14 (MAP3K14, Homo sapiens, UniProt Q99558)",90
"Ribosomal protein S6 kinase alpha-6, N-terminal kinase domain (RPS6KA6, Homo sapiens, UniProt Q9UK32)",100

# For quick reference, copied from above (block 1):
SMILES,remaining activity
Cc1cccc(-c2[nH]c(C(C)(C)C)nc2-c2ccc3c(c2)OCO3)n1,79%
O=C1NC(=O)C(c2cn(CCCn3ccnc3)c3ccccc23)=C1Nc1ccccc1,84.3%
COc1ccc(CNC(=O)Nc2ncc([N+](=O)[O-])s2)cc1,82.8%
Cn1sc(=O)n(Cc2ccccc2)c1=O,85.4%
O=C(CCCc1ccc(-c2ccccc2F)cc1)Nc1ccc(O)cc1,84.5%
C#Cc1cccc(Nc2ncnc3cc(OCCOC)c(OCCOC)cc23)c1,57.9%
